Measured values pooled from the literature.
Compare with care: the assays were run in different laboratories. “And” joins repeats or separate records; there may be more than shown. Numbers after ± are the reported error.

| SMILES | tested on | assay | system | setting | scale | measurement | value |
| --- | --- | --- | --- | --- | --- | --- | --- |
| COC1CN([C@H]2CC[C@H]([C@@]3(C)Oc4c(Cl)cc(C(=O)NCc5c(SC)cc(C)[nH]c5=O)c(C)c4O3)CC2)C1 |  | RNA-seq, refers to: CFAP43 mouse homolog | mouse, HT-1376 xenograft, whole blood | dose not given | reference: vehicle | log2 fold change | 0.545 |
| C=CC(=O)Nc1cccc(Cn2ncc3cnc(Nc4cnn(CCOC)c4)nc32)c1 | TAOK3 human | binding, KINOMEscan |  | 100 nM | lower = stronger binding | percent of control | 44% |
| O=C1NC2(CC2)COc2ncc(F)cc2[C@H]2COCCN2c2ccn3ncc1c3n2 | CHL |  |  | 300 µg/mL, 4 h, with rat liver S9 |  | structural aberrations with gaps | 0.3% |
| COc1cccc(OC)c1-c1cc(C(=O)NC2(C(=O)O)C3CC4CC(C3)CC2C4)nn1-c1ccc(C(=O)N(C)CCCN(C)C(=O)[C@H](CCCCNC(=O)[C@H](CC(C)C)NC(=O)C2OC2C(=O)O)NC(=O)CN2CCN(CC(=O)[O-])CCN(CC(=O)[O-])CCN(CC(=O)[O-])CC2)cc1C(C)C.[177Lu+3] (mixture of isomers) |  |  | mouse HT-29 xenograft | 4 h, biodistribution | reference: tumour over large intestine | tumour-to-large intestine ratio | 7.72 |
| O=C(Nc1cnccc1-c1ccc([18F])nc1)c1ccnc(NC(=O)C2CC2)c1 |  |  | FVB/NJ mouse, both sexes, brain | intravenous, 25 min |  | SUV | 0.076 |
| C=C(NC(=O)c1csc(-c2nc3c(cc2O)-c2nc(cs2)C(=O)NC(C(C)O)C(=O)NC(=C(C)OC)c2nc(cs2)C(=O)NC2c4nc(cs4)C(=O)NC(COC(=O)c4c5c6c(cccc6n4O)COC(=O)C(OC4CC(C)(O)C(N(C)C)C(C)O4)C2OC5)c2nc-3cs2)n1)C(N)=O (stereo not shown) |  |  | female cynomolgus monkey, plasma | intravenous, 9 mg/kg, single dose, infusion |  | AUC(0-t) | 42400 ng·h/mL |
| COc1ccnc(C(=O)N[C@H]2COC(=O)[C@H](Cc3ccccc3)[C@@H](OC(=O)C(C)C)[C@H](C)OC2=O)c1O |  |  | straw, bran, forage, germ | -18 °C |  | storage stability of residues | 9 months |
| CC[C@H](C)[C@@H]1NC(=O)[C@H](Cc2ccc(O)cc2)NC(=O)CCCSC[C@@H](C(=O)N(CC(=O)N[C@@H](CC(C)C)C(=O)NCC(N)=O)Cc2ccc(F)cc2)NC(=O)[C@H](CC(N)=O)NC(=O)[C@H](CCC(N)=O)NC1=O |  |  | human | intranasal, 400 µg single dose |  | subjects with any TEAE | 50% |
| COc1ccc(C([O-])=CC(=O)c2ccc(C(C)(C)C)cc2)cc1.[Ru+2].c1ccc(-c2ccccn2)nc1.c1ccc(-c2ccccn2)nc1 |  |  | zebrafish larvae | 10 µM |  | toxicity | 100% |
| C[C@]12C[C@H](c3ccc(S(C)(=O)=O)cc3)C3=C4CCC(=O)C=C4CC[C@H]3[C@@H]1CC[C@@]2(O)C(F)(F)C(F)(F)F |  | refers to: compound (parent) | healthy human volunteers, pooled plasma | oral, 5 mg daily, day 28, 96 h |  | plasma concentration | 4.05 ng/mL |
| Cc1noc(C)c1Cn1cc(N2C(=O)CN(Cc3cccc(OS(=O)(=O)O)c3)C2=O)cn1 |  |  | Sprague-Dawley rat, male | oral, 100 mg/kg of parent drug, 24 h |  | plasma concentration | 324 ng/mL |
| Cc1nn(-c2nc3c(F)cc(F)cc3s2)c(O)c1C(c1ccc(C(F)(F)F)cc1)c1c(C)nn(-c2nc3c(F)cc(F)cc3s2)c1O |  |  | ICR mouse, plasma | intraperitoneal, 10 mg/kg |  | MRT(0-last) | 6.42 h and 7.11 h and 7.82 h |
| CNS(=O)(=O)Nc1nccc(Cc2c(C)c3ccc(Oc4ncccc4F)cc3oc2=O)c1F | SW 1116 | cell viability |  | 7 days |  | IC50 | 0.0145 µM |
| COc1cccc(OC)c1-c1cc(C(=O)NC2(C(=O)O)C3CC4CC(C3)CC2C4)nn1-c1ccc(C(=O)N(C)CCCN(C)CCCN(C)C(=O)[C@H](CCCCNC(=O)[C@H](CC(C)C)NC(=O)C2OC2C(=O)O)NC(=O)CN2CCN(CC(=O)[O-])CCN(CC(=O)[O-])CCN(CC(=O)[O-])CC2)cc1C(C)C.[177Lu+3] (mixture of isomers) |  |  | mouse, HT-29 xenograft | 4 h post injection, biodistribution | reference: tumour over lung uptake | tumour-to-lung ratio | 6.11 |
| Cc1ncsc1-c1ccc(C(C)NC(=O)C2CC(O)CN2C(=O)C(NC(=O)CCCCCCCCCCN2CCCC(Nc3ncc(Cl)c(Nc4ccccc4S(=O)(=O)C(C)C)n3)C2)C(C)(C)C)cc1 (stereo not shown) | 22Rv1 | RNA-seq, refers to: ZNF184 mRNA |  | concentration not given | reference: DMSO | log2 fold change | -1.14 |
| Nc1ncc(-c2cc(-c3cnn(CC(F)(F)F)c3)ncc2F)nc1C(=O)NC1CNCC(F)C1 (stereo not shown) | WEE2 | KINOMEscan |  | 1 µM | reference: DMSO control | remaining binding | 79% |
| CC(=O)N([O-])CCCCCNC(=O)CCC(=O)N([O-])CCCCCNC(=O)CCC(=O)N([O-])CCCCCN.[89Zr+4] |  |  | 0.9 % NaCl saline | 7 days, pH 4.5, 37 °C |  | intact compound | 96.2 ± 2.9% |
| C/C(N)=N/C(=N\S(=O)(=O)c1ccc(C(F)(F)F)cc1)N1C[C@H](c2ccccc2)C(c2ccc(Cl)cc2)=N1 |  |  | C57BL/6 mouse, male, heart | intravenous, 10 mg/kg | reference: heart over plasma | tissue/plasma ratio | ~2 |
| CC(=O)N[C@@H](CCCCN)C(=O)N[C@H](C(=O)N[C@@H](Cc1ccc(O)cc1)C(=O)N[C@@H](Cc1ccc(O)cc1)C(=O)N[C@@H](CCCNC(=N)N)C(=O)N[C@@H](Cc1ccc(O)cc1)C(=O)N[C@@H](CC(N)=O)C(=O)NCC(=O)N[C@@H](CCCCN)C(=O)N[C@H](C(=O)N[C@@H](Cc1c[nH]c2ccccc12)C(=O)N[C@@H](Cc1c[nH]c2ccccc12)C(=O)N[C@@H](CCCNC(=N)N)C(=O)O)C(C)C)C(C)C |  | circular dichroism | free peptide in solution | concentration not given, 25 °C, no insulin present |  | α-helix content | 11.3% |

A few entries again:
| SMILES | tested on | assay | system | setting | scale | measurement | value |
| --- | --- | --- | --- | --- | --- | --- | --- |
| COc1ccc(C([O-])=CC(=O)c2ccc(C(C)(C)C)cc2)cc1.[Ru+2].c1ccc(-c2ccccn2)nc1.c1ccc(-c2ccccn2)nc1 |  |  | zebrafish larvae | 10 µM |  | toxicity | 100% |
| COc1cccc(OC)c1-c1cc(C(=O)NC2(C(=O)O)C3CC4CC(C3)CC2C4)nn1-c1ccc(C(=O)N(C)CCCN(C)CCCN(C)C(=O)[C@H](CCCCNC(=O)[C@H](CC(C)C)NC(=O)C2OC2C(=O)O)NC(=O)CN2CCN(CC(=O)[O-])CCN(CC(=O)[O-])CCN(CC(=O)[O-])CC2)cc1C(C)C.[177Lu+3] (mixture of isomers) |  |  | mouse, HT-29 xenograft | 4 h post injection, biodistribution | reference: tumour over lung uptake | tumour-to-lung ratio | 6.11 |
